Assay results from different studies.
Every numbered part comes from another study and shows a few of its results, in no order. Substitutions count along the parent as printed.

Sample 1
Target: Fragile X messenger ribonucleoprotein 1, C-terminal low-complexity region (Fmr1, Mus musculus, UniProt P35922)
Technique: RNA Bind-n-Seq
Molecule type: RNA
Medium: in vitro
Tested at: 200 nM
Notes: whole 134-nt RNA, ends assumed
With: 150 mM KCl
Relative to: input library
Reading: higher = stronger binding
Constant ends, left off below: GGGAGUUCUACAGUCCGACGAUC … UGGAAUUCUCGGGUGUCAAGG
`UCCUGUGCUACACAUCGUAUGUACCGAAUCGGGGUUUUUUUGGGGAAAAAGGGGUGGGGAAAGUAUUAUGUUACGCCGUUCGGAUCUGCA` has a log2 enrichment of 0.729.
The log2 enrichment of `UGGCCCUGGUGGCAUGCGGGGAGGAAGAGGUGGCCUCAUGGAUCGUGGUGGUCCCGGUGGAAUCUUCAGAGGUGGCCGUGGUGGAGACAG` is reported as -0.1.
With `AAGUCCUGUGCUACACAUCGUAUGUACCGAAUCGGGUUUUGGUUUUGGGUUUUGGGAAAGUAUUAUGUUACGCCGUUCGGAUCUGCACUU` the log2 enrichment was -0.453.
With `GCAGGAAGUAAAAACAAAUGGAAAUGCUUCGAAUAGUGGCAGGGGUGGGGGUUGCUAAGGAAAGGGUGGGAUGGGAGUGGGUAAAGAGUU` the log2 enrichment was 0.418.
`ACCAUGCAGGUGGGCAUCUUUGGGAAGUGGGGCAAGGGGGGGAUAGGGAGGGGGGUAACACUUUGGGAACAGGUAGUCCCAGGUCGUUUC` has a log2 enrichment of 0.712.
For `GUCCUGUGCUACACAUCGUAUGUACCGAAUCGGGAAAAAAAGGGUGGGUUUUUUUGGGAAAGUAUUAUGUUACGCCGUUCGGAUCUGCAC`, the log2 enrichment was 0.0856.
For `UGGGAGGUGGAUUUUGUUUAUUUUUUUAGCUCAUUUCAAGGGGUGGGAAUUUUUUUUUAAUAUGUGUCAUGAAUAAAGUUGUUUUUGAAA`, the log2 enrichment was 0.227.
`UGCGAGGUGGAUUUUGUUUAUUUUUUUAGCUCAUUUCCAGGGGUGGGAAUUUUUUUUUAAUAUGUGUCAUGAAUAAAGUUGUUUUUGAAA` gave a log2 enrichment of -0.0434.
With `CUCAAGUCCUGUGCUACACAUCGUAUGUACCGAAUCGGUGGAAAGGAAAAAGGAAAGUAUUAUGUUACGCCGUUCGGAUCUGCACUUCCA` the log2 enrichment was -0.216.
`GUCCUGUGCUACACAUCGUAUGUACCGAAUCAAACCCCCAAACCCAAACCCCCCCAAAAAAGUAUUAUGUUACGCCGUUCGGAUCUGCAC` has a log2 enrichment of -0.525.
The log2 enrichment of `GCAGGAAGUAAAAACAAAUGAAAAUGCUUCGGAUAGUGGCAGGGGUGGGGGUUGCUAAGGAAAGGGUGGGAUGGGAGUGGGUAAAGAGUU` is reported as 0.2.
`ACCAUGCAGGUGGGCAUCUUUGGGAAGUGGGGCAAGGGGGGGAUAGGUAGGGGGGUAACACUUUGGGAACAGGUGGUCCCAGGUCGUUUC` gave a log2 enrichment of 0.548.
The log2 enrichment of `CACAGACAACACGCACCCACACAGACACAGAGGGAAGGGGGUGGGAUGGGGACAGGGUGCACAGCAGGGCGGGGUAGGACCCCAGCCCCU` is reported as 1.13.
With `GUCCUGUGCUACACAUCGUAUGUACCGAAUCGGGGUUUUUGGGGUUUUUGGGGAGGGGAAAGUAUUAUGUUACGCCGUUCGGAUCUGCAC` the log2 enrichment was 0.702.

Sample 2
Target: Interferon regulatory factor 5, full length, phosphomimetic (IRF5, Homo sapiens, UniProt Q13568-2, residues 1-514, K96S/S451D/S453D/S456D/S462D)
Technique: protein-binding microarray
Molecule type: double-stranded DNA, one strand shown
Medium: in vitro
Tested at: 250 nM
Notes: 60-bp whole probe
With: salmon DNA 0.4 mg/ml
Relative to: random background probes
Reading: higher = stronger binding
Constant ends, left off below: GCCTAGCAC … GTCTTGATTCGCTTGACGCTGCTG
`GACGGACTGCTTATCCTGAGGTGCTAG` gave a log fluorescence of -0.281 z-score.
For `TTAGAACGGGGGTTTCGATTAGTGCTA`, the log fluorescence was 7.21 z-score.
For `TCAACACTCACCATGGCACTGTGCTAG`, the log fluorescence was -0.0175 z-score.
`TTACAGCTATTTTTAGGATGGTGCTAG` has a log fluorescence of 0.419 z-score.
For `GACGATTTGAGTCTCGAGACGTGCTAG`, the log fluorescence was -0.00922 z-score.
`TTAGGTATCGGGTATCTGTTAGTGCTA` has a log fluorescence of 4.46 z-score.
The log fluorescence of `CCATTCTTGGGACTCACCTGGTGCTAG` is reported as -0.356 z-score.
`TTCGATTCCAGTTTCGATTAGTGCTAG` gave a log fluorescence of 9.88 z-score.
`TTAGGTTTGGGACTGGGTTAGTGCTAG` has a log fluorescence of -0.231 z-score.
`TTAGGACTCGGTATCGGTTAGTGCTAG` gave a log fluorescence of 4.75 z-score.
`TCACCTTTGCCTCTGAGACTGTGCTAG` gave a log fluorescence of -0.208 z-score.
The log fluorescence of `TTAGATACCAGTTTCGATTAGTGCTAG` is reported as 9.53 z-score.
With `TCATGCTTTCTTTTATGACTGTGCTAG` the log fluorescence was 1.12 z-score.
The log fluorescence of `TAATTTTTACTTTCTGAATGGTGCTAG` is reported as 4.2 z-score.
With `TGTTGTCTGTGTTTCCTTGTGTGCTAG` the log fluorescence was 0.518 z-score.
For `TATAATATATATTCATATATGTGCTAG`, the log fluorescence was 0.761 z-score.
With `GACGAACTGGGCACTGGAGACGTGCTA` the log fluorescence was -0.494 z-score.
The log fluorescence of `GACGGTATCGGACTGGGCACGTGCTAG` is reported as 0.807 z-score.

Sample 3
Target: CCNB3, cyclin fold, Cln2 fusion (human)
Technique: yeast growth competition, sequencing
Medium: yeast
Notes: weak parent motif
Relative to: not given
Reading: higher = stronger binding
Starting sequence: ORC1 docking peptide (human); PRARKRLELGNLG
For `E8K`, “normalised enrichment score” read -0.0623.
Under “normalised enrichment score”, `L7R` is recorded as 0.361.
For `A3T`, “normalised enrichment score” read 0.23.
For `R6G`, “normalised enrichment score” read 0.727.
For `E8C`, “normalised enrichment score” read -0.0778.
For `E8P`, “normalised enrichment score” read 0.145.
`E8W` — result for “normalised enrichment score”: 0.276.
`R4H`: “normalised enrichment score” 0.571.
`N11M`: “normalised enrichment score” 1.07.
For `K5T`, “normalised enrichment score” read -0.0214.
Under “normalised enrichment score”, `E8Y` is recorded as 0.0818.
`R4Y` — result for “normalised enrichment score”: 0.294.
`G13D` — result for “normalised enrichment score”: 0.239.
For `N11E`, “normalised enrichment score” read -0.182.
`A3W`: “normalised enrichment score” 0.142.
For `R2C`, “normalised enrichment score” read -0.00855.
`N11G` — result for “normalised enrichment score”: 0.409.
For `L12W`, “normalised enrichment score” read 0.401.
Under “normalised enrichment score”, `R6Q` is recorded as 0.0547.
Under “normalised enrichment score”, `R6S` is recorded as -0.112.
`R2Y` — result for “normalised enrichment score”: -0.236.
`R4I`: “normalised enrichment score” -0.0502.
For `P1A`, “normalised enrichment score” read 0.622.
`N11R`: “normalised enrichment score” 0.177.
`G10M` — result for “normalised enrichment score”: 0.36.

Sample 4
Target: PABPC1L2, full length, GST fusion (mouse, UniProt A0ABA7IW68)
Technique: RNAcompete
Molecule type: RNA
Medium: in vitro
Tested at: 20 nM
Notes: 7-mer, probes averaged, single round
Relative to: mean of 7-mers
Reading: higher = stronger binding
Target sequence (chain): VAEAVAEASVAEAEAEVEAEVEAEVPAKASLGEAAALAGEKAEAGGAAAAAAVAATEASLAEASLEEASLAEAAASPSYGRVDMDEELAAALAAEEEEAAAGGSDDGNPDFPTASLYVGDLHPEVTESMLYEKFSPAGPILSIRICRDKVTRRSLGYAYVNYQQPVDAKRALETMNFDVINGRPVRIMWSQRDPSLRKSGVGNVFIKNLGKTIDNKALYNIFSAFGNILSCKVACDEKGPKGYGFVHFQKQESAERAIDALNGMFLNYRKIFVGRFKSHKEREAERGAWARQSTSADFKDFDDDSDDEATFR
`GCUGGAC` gave a 7-mer Z-score of -0.0156.
`GCUUCGC` gave a 7-mer Z-score of -0.333.
With `CCGAACU` the 7-mer Z-score was -0.277.
`UCUCCUU` gave a 7-mer Z-score of -0.407.
With `AGGAGUG` the 7-mer Z-score was 0.12.
`AUCAGCC` gave a 7-mer Z-score of -0.296.
The 7-mer Z-score of `GAGGCAG` is reported as 0.254.
`CGUCCUC` has a 7-mer Z-score of -0.4.
With `GAUGUCC` the 7-mer Z-score was -0.275.
For `ACGUCAU`, the 7-mer Z-score was -0.226.
With `UAGCAUG` the 7-mer Z-score was -0.0681.
`UGGACCG` gave a 7-mer Z-score of 0.222.
The 7-mer Z-score of `GGGAUUG` is reported as 0.0787.
`ACGUUUG` has a 7-mer Z-score of -0.472.
`CGAAACC` has a 7-mer Z-score of -0.139.
With `CUCCCCC` the 7-mer Z-score was -0.496.
`AGAGGUU` gave a 7-mer Z-score of -0.199.
`UGCGGGC` has a 7-mer Z-score of 0.0823.
With `AGACUUU` the 7-mer Z-score was -0.309.
For `GUAUAUC`, the 7-mer Z-score was -0.188.
For `GAGAACG`, the 7-mer Z-score was 0.0932.
`AUACUGU` gave a 7-mer Z-score of -0.235.

Sample 5
Target: ABI1, truncated, D143A, DHFR fusion (Arabidopsis thaliana)
Technique: DHFR PCA, deep sequencing
Medium: yeast
Notes: methotrexate growth selection, single substitutions
With: (+)-ABA 1.4 µM
Relative to: wild-type fitted maximum
Reading: higher = stronger binding
Starting sequence: PYL1, truncated, DHFR fusion (Arabidopsis thaliana); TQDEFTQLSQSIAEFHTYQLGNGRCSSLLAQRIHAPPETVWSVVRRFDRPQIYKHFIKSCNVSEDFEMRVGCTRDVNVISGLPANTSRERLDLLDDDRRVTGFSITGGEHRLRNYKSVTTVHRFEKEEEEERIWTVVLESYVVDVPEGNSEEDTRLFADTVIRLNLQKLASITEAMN; partner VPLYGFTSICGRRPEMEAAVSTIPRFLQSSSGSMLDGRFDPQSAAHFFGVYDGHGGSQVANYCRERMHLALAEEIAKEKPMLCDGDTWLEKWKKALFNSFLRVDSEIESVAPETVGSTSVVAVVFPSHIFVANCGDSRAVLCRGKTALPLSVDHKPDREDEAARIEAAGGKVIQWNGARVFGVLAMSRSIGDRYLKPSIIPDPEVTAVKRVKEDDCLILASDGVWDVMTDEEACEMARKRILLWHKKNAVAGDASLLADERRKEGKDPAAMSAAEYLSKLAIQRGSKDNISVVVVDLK
For `N114M`, “relative binding score” read -4.94%.
`E14I` — result for “relative binding score”: 3.66%.
Under “relative binding score”, `E152D` is recorded as 55.7%.
`T135S` — result for “relative binding score”: 48.7%.
Under “relative binding score”, `S150V` is recorded as 5.72%.
For `S42M`, “relative binding score” read 31.6%.
Under “relative binding score”, `A13W` is recorded as 5.77%.
`H34R`: “relative binding score” 47.9%.
For `D3S`, “relative binding score” read 40.5%.
For `E89M`, “relative binding score” read -5.04%.
`Q51A`: “relative binding score” -1.72%.
Under “relative binding score”, `T120Y` is recorded as -10.3%.
For `W134L`, “relative binding score” read 60.3%.
`R74W`: “relative binding score” -12.4%.
`P146E`: “relative binding score” -11.2%.

Other studies, line by line
`PhoQ, residues 284 288 289 292 302 303 QWGLFV` has a fold induction of 1.75 (PhoP, residues 12 14 15 18 19 VHSCL (Escherichia coli, UniProt P23836); Sort-seq, refers to: YFP reporter; E. coli; PhoQ-PhoP variant library, with: 10 µM Mg2+; relative to: high Mg2+ state, higher = stronger signaling).

For quick reference, copied from above (sample 4):
`UGGACCG` gave a 7-mer Z-score of 0.222.
With `AGACUUU` the 7-mer Z-score was -0.309.
`AUCAGCC` gave a 7-mer Z-score of -0.296.
With `CCGAACU` the 7-mer Z-score was -0.277.
`UCUCCUU` gave a 7-mer Z-score of -0.407.
`AUACUGU` gave a 7-mer Z-score of -0.235.
For `GUAUAUC`, the 7-mer Z-score was -0.188.
`ACGUUUG` has a 7-mer Z-score of -0.472.
With `AGGAGUG` the 7-mer Z-score was 0.12.
`GCUGGAC` gave a 7-mer Z-score of -0.0156.
`AGAGGUU` gave a 7-mer Z-score of -0.199.
`CGAAACC` has a 7-mer Z-score of -0.139.
`CGUCCUC` has a 7-mer Z-score of -0.4.
